Published values of several laboratories.
Each numbered part is a random draw from the data of one study; scales do not carry over between parts. Several values in a cell are separate wells, animals, samples, runs or records.
UniProt O14730, sequence (whole entry, looked up): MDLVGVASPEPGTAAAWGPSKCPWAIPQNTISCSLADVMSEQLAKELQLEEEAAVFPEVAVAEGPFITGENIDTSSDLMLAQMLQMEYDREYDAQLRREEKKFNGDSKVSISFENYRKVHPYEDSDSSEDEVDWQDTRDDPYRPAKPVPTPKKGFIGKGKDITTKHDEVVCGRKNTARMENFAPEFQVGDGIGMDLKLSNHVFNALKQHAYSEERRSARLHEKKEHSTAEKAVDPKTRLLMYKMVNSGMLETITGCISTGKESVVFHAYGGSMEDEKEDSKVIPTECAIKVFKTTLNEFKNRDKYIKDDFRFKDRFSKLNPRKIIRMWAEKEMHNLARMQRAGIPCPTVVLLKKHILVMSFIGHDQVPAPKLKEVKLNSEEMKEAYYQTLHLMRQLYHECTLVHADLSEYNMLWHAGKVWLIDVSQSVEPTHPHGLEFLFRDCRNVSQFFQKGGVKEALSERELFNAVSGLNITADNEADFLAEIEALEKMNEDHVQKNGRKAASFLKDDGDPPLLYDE
UniProt P57078, sequence (whole entry, looked up): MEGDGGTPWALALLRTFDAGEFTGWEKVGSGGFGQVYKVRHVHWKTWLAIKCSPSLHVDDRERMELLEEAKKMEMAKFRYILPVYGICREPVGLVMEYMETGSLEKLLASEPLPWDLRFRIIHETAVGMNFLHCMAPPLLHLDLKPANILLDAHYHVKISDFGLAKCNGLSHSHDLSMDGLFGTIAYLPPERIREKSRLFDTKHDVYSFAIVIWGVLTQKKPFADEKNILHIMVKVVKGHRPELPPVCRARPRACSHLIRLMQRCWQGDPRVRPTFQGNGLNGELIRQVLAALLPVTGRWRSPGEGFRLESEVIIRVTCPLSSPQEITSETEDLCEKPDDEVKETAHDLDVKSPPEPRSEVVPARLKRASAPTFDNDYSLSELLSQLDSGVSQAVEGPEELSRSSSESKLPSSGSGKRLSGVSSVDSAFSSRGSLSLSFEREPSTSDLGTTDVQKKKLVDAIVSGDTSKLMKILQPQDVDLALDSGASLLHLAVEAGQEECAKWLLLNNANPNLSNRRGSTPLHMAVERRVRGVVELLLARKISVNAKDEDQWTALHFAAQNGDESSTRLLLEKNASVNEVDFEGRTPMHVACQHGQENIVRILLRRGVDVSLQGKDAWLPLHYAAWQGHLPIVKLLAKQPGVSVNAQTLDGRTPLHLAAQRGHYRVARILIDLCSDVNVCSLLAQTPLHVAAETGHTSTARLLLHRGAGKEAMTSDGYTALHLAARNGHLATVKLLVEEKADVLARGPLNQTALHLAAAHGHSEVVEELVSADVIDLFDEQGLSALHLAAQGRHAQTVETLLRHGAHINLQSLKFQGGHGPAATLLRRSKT
UniProt P57059, sequence (whole entry, looked up): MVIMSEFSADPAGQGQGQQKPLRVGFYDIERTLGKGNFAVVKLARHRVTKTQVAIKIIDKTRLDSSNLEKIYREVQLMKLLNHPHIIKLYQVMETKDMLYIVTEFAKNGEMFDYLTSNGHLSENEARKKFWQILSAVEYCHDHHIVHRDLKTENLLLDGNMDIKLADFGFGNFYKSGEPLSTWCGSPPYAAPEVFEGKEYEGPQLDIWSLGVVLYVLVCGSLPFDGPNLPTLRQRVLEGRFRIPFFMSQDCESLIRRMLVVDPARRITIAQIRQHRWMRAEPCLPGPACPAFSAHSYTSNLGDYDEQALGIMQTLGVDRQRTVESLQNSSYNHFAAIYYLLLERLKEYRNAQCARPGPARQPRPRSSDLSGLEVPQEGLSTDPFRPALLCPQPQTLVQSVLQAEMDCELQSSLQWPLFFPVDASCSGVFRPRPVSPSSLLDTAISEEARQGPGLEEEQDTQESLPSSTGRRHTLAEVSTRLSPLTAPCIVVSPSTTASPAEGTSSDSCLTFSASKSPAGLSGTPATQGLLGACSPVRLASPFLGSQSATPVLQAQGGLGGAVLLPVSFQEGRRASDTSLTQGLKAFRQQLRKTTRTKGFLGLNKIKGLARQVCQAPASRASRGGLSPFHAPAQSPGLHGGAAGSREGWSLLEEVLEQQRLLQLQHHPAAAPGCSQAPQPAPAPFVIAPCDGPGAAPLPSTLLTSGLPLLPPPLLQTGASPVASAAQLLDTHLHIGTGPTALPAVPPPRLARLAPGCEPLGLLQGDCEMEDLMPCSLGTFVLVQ
UniProt P19525, sequence (whole entry, looked up): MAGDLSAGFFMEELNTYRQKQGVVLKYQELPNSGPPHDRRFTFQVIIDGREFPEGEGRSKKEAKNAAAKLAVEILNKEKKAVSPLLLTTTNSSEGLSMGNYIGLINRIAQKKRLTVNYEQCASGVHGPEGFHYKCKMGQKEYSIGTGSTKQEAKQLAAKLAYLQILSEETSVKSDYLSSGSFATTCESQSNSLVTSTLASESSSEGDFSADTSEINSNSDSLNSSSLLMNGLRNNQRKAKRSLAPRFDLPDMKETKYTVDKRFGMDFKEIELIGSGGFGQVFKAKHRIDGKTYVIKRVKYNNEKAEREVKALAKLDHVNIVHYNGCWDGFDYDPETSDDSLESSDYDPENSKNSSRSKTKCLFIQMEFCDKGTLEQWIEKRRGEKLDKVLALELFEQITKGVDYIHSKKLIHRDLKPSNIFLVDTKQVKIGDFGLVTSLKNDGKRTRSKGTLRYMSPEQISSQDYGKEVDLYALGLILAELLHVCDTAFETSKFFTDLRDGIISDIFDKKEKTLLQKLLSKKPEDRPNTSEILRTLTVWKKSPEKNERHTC
UniProt P52333, sequence (whole entry, looked up): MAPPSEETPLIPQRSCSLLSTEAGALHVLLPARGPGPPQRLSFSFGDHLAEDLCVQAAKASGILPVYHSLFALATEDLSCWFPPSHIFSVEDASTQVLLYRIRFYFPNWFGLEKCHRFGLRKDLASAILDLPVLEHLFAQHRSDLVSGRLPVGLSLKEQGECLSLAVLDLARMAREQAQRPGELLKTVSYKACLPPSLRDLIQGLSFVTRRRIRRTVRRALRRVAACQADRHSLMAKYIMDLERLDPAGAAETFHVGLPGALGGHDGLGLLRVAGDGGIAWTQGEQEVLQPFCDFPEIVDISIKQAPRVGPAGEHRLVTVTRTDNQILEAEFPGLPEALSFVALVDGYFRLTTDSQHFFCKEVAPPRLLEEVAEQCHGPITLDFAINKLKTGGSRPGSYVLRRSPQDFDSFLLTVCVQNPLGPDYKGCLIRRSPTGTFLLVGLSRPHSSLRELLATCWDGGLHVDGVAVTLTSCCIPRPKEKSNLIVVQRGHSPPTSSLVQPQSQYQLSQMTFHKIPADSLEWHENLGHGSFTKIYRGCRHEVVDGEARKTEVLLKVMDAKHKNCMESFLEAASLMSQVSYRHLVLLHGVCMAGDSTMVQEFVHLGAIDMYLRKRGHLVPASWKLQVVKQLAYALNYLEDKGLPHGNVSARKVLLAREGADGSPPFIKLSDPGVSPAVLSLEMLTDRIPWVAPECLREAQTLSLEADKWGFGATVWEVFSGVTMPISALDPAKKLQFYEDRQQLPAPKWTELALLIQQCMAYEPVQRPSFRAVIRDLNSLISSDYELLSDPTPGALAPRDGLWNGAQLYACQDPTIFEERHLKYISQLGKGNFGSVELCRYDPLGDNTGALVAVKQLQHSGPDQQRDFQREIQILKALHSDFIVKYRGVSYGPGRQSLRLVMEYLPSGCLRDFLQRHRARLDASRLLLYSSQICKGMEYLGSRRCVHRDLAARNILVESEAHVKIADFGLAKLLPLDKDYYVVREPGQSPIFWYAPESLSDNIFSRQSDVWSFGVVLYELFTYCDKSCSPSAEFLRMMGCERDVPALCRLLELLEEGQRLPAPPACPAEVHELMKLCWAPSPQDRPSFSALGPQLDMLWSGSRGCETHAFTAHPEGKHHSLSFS
UniProt O43293, sequence (whole entry, looked up): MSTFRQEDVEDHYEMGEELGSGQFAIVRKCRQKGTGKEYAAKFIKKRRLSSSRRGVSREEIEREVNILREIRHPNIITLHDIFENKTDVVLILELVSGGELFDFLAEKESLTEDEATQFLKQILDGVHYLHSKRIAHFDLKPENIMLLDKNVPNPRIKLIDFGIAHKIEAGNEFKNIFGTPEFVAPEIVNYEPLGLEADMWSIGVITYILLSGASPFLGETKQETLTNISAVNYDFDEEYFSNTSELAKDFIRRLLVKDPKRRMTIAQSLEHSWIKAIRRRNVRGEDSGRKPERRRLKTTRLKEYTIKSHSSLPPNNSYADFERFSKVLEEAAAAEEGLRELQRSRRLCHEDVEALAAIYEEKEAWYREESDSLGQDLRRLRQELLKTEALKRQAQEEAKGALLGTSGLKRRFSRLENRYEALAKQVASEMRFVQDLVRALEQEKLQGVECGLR

Series 1 — effect on: enzyme activity; action: inhibitor; concentration: 0.5 µM; baseline: control; quantity: remaining activity
Target: Tyrosine-protein kinase Lyn (LYN, Homo sapiens, UniProt P07948)
UniProt P07948, sequence (whole entry, looked up): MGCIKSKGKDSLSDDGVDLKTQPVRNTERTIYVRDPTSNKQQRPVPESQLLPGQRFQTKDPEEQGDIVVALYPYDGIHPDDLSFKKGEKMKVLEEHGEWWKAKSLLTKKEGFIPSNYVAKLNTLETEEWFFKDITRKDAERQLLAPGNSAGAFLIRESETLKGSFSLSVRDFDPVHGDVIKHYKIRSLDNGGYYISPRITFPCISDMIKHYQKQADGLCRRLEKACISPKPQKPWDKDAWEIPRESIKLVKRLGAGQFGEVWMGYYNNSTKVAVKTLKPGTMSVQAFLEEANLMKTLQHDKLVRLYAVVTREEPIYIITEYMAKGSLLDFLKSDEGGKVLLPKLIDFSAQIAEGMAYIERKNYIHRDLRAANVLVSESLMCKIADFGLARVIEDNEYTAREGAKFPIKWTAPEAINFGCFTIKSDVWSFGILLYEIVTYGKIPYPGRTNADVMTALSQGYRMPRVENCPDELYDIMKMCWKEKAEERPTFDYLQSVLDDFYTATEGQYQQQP
C[C@@H]1CCN(C(=O)CC#N)C[C@@H]1N(C)c1ncnc2[nH]ccc12: 96.3%
COc1cc2ncnc(Nc3ccc(O)c(Br)c3)c2cc1OC: 40.3%
c1ccc(-c2[nH]ncc2-c2ccnc3ccccc23)nc1: 87.8%
O=C1C(Cl)=C(N2C(=O)CCC2=O)C(=O)c2ccccc21: 93.5%
O=C(Nc1cccc(Nc2nccc(Nc3cccc(C(F)(F)F)c3)n2)c1)C1CC1: 91.9%
Cc1cc2ncc(-c3ccccc3)nc2cc1C: 98.2%
c1ccc(-c2cnc(Nc3ccc(OCCN4CCCC4)cc3)s2)cc1: 65.1%
Ic1cccc(CSc2nnc(-c3ccncc3)o2)c1: 103%
CCOc1nc(NC(=O)Cc2cc(OC)ccc2OC)cc(N)c1C#N: 98.5%
Cn1nc2c3c(cccc31)C(=O)c1ccccc1-2: 96.1%
CCN(CC)CCNC(=O)c1c(C)[nH]c(/C=C2\C(=O)Nc3ccc(F)cc32)c1C: 23%
O=C(NC(NC(=S)Nc1ccc(F)c([N+](=O)[O-])c1)C(Cl)(Cl)Cl)C(c1ccccc1)c1ccccc1 (centres unmarked): 103%
COc1cc2ncnc(Nc3cccc(Cl)c3)c2cc1OC: 43.1%
COc1cc2c(cc1OC)-c1[nH]nc(Nc3cccc(F)c3)c1C2: 60.2%
CN([C@@H](Cc1ccc(OS(=O)(=O)c2cccc3cnccc23)cc1)C(=O)N1CCN(c2ccccc2)CC1)S(=O)(=O)c1cccc2cnccc12: 101%
Cc1nc2cc3nc(-c4cccs4)cnc3cc2n1C: 97.8%
CN(C)C[C@H]1CCn2c(c(C3=C(c4cn(C)c5ccccc45)C(=O)NC3=O)c3ccccc32)C1: 100%
N#C/C(=C\c1ccc(O)c(O)c1)C(=O)NCc1ccccc1: 99.8%
N#Cc1c(NC(=O)c2cccc3ccccc23)sc2c1CCCC2: 104%
Cc1cn(-c2cc(NC(=O)c3ccc(C)c(Nc4nccc(-c5cccnc5)n4)c3)cc(C(F)(F)F)c2)cn1: 52.9%
CCN(CC)C(=O)c1ccc(Nc2nc(OCC3CCCCC3)c3[nH]cnc3n2)cc1: 78.2%
Nc1cccc(-c2cc3c(Oc4cccc(O)c4)ncnc3[nH]2)c1: 11.1%

Series 2 — cell line: Huh-7; concentration: 10 µM; time: 24 h; quantity: viability
O=C1c2cccc(O)c2C(=O)c2c(O)cccc21: 97.4%
CC[C@H](C)[C@H](N)C1=N[C@H](C(=O)N[C@@H](CC(C)C)C(=O)N[C@H](CCC(=O)O)C(=O)N[C@H](C(=O)N[C@H]2CCCCNC(=O)[C@H](CC(N)=O)NC(=O)[C@@H](CC(=O)O)NC(=O)[C@H](Cc3cnc[nH]3)NC(=O)[C@@H](Cc3ccccc3)NC(=O)[C@H]([C@@H](C)CC)NC(=O)[C@@H](CCCN)NC2=O)[C@@H](C)CC)CS1: 99.2%
CC1(C)S[C@@H]2[C@H](NC(=O)Cc3ccccc3)C(=O)N2[C@H]1C(=O)O: 99.6%
C[C@]12CCC(=O)C=C1C=C[C@@H]1[C@@H]2CC[C@@]2(C)[C@H]1CC[C@@]21CCC(=O)O1: 91.7%
CC1Cc2ccccc2N1NC(=O)c1ccc(Cl)c(S(N)(=O)=O)c1 (centres unmarked): 103%
Cc1noc(NS(=O)(=O)c2ccc(N)cc2)c1C: 98.3%
CNCC[C@@H](Oc1ccccc1C)c1ccccc1: 96.6%
CC(=O)S[C@@H]1CC2=CC(=O)CC[C@]2(C)[C@H]2CC[C@@]3(C)[C@@H](CC[C@@]34CCC(=O)O4)[C@H]12: 101%
CN(C)CCOC(C)(c1ccccc1)c1ccccn1 (centres unmarked): 98%
CCCC1O[C@@H]2C[C@H]3[C@@H]4CCC5=CC(=O)C=C[C@]5(C)[C@H]4[C@@H](O)C[C@]3(C)[C@]2(C(=O)CO)O1 (some centres unmarked): 92.8%
NC(N)=Nc1nc(CSCCC(N)=NS(N)(=O)=O)cs1: 92.8%
N[C@@H]1CON=C1O: 104%
O=C(O)CCC(=O)Nc1ccc(S(=O)(=O)Nc2nccs2)cc1: 100%

Series 3 — concentration: 1 µM; quantity: remaining binding
SMILES: CCOCCn1cc(C(=O)Nc2ccc(-n3nc(-c4cccnc4)cc3C(F)(F)F)cn2)ccc1=O
DAPK3 (Homo sapiens, UniProt O43293); cell-free assay, competition with immobilised ligand: 91%
Aurora kinase B (AURKB, Homo sapiens, UniProt Q96GD4); cell-free assay, competition with immobilised ligand: 100%
SIK1 (Homo sapiens, UniProt P57059); competition binding: 100%
IKBKE (Homo sapiens, UniProt Q14164); cell-free assay, competition with immobilised ligand: 79%
DDR2 (Homo sapiens, UniProt Q16832); cell-free assay, competition with immobilised ligand: 100%
RIPK4 (Homo sapiens, UniProt P57078); cell-free assay, competition with immobilised ligand: 81%
CDK14 (Homo sapiens, UniProt O94921); cell-free assay, competition with immobilised ligand: 100%
GAK (Homo sapiens, UniProt O14976); cell-free assay, competition with immobilised ligand: 100%
Tyrosine-protein kinase JAK3, JH1 (JAK3, Homo sapiens, UniProt P52333); cell-free assay, competition with immobilised ligand: 100%
PRKX (Homo sapiens, UniProt P51817); cell-free assay, competition with immobilised ligand: 100%
PRKG2 (Homo sapiens, UniProt Q13237); cell-free assay, competition with immobilised ligand: 100%
RET (Homo sapiens, UniProt P07949, M918T); cell-free assay, competition with immobilised ligand: 91%
EGFR (Homo sapiens, UniProt P00533, del747-752/P753S); cell-free assay, competition with immobilised ligand: 98%
MAPKAPK2 (Homo sapiens, UniProt P49137); cell-free assay, competition with immobilised ligand: 100%
FLT3 (Homo sapiens, UniProt P36888, D835V); cell-free assay, competition with immobilised ligand: 100%
Tyrosine-protein kinase ABL1, phosphorylated (ABL1, Homo sapiens, UniProt P00519, Y253F); cell-free assay, competition with immobilised ligand: 73%
EIF2AK2 (Homo sapiens, UniProt P19525); cell-free assay, competition with immobilised ligand: 100%
MKNK1 (Homo sapiens, UniProt Q9BUB5); cell-free assay, competition with immobilised ligand: 97%
STK39 (Homo sapiens, UniProt Q9UEW8); cell-free assay, competition with immobilised ligand: 100%
FLT1 (Homo sapiens, UniProt P17948); cell-free assay, competition with immobilised ligand: 100%
LTK (Homo sapiens, UniProt P29376); cell-free assay, competition with immobilised ligand: 100%
RIOK3 (Homo sapiens, UniProt O14730); cell-free assay, competition with immobilised ligand: 88%
Myosin-IIIb (MYO3B, Homo sapiens, UniProt Q8WXR4); binding, competition with immobilised ligand: 96%
Aurora kinase A (AURKA, Homo sapiens, UniProt O14965); cell-free assay, competition with immobilised ligand: 85%
FLT3 (Homo sapiens, UniProt P36888, D835Y); cell-free assay, competition with immobilised ligand: 98%

Series 4 — cell line: A-375; concentration: 100 µM; time: 18 h; quantity: viability
CC[C@H]1OC(=O)[C@H](C)[C@@H](O[C@H]2C[C@@](C)(OC)[C@@H](O)[C@H](C)O2)[C@H](C)[C@@H](O[C@@H]2O[C@H](C)C[C@H](N(C)C)[C@H]2O)[C@](C)(O)C[C@@H](C)C(=O)[C@H](C)[C@@H](O)[C@]1(C)O: 94.4%
COc1c(N2CCNC(C)C2)c(F)cc2c(=O)c(C(=O)O)cn(C3CC3)c12 (centres unmarked): 57.9%
Cc1[nH]c2ccccc2c1CCNCc1ccc(/C=C/C(=O)NO)cc1: 39%
Cc1c(CNCS(=O)(=O)O)c(=O)n(-c2ccccc2)n1C: 103%
Nc1nc2c(c(=O)[nH]1)N(C=O)C(CNc1ccc(C(=O)N[C@@H](CCC(=O)O)C(=O)O)cc1)CN2 (some centres unmarked): 103%
COc1ccc(-c2ccc3cc(C(=O)O)ccc3c2)cc1[C@]12C[C@H]3C[C@H](C[C@H](C3)C1)C2: 12.5%
CCCCN1CCCCC1C(=O)Nc1c(C)cccc1C (centres unmarked): 90.9%
CCOc1ccc2nc(SCCN3CCOCC3)[nH]c2c1: 110%
N=C(N)N/N=C/c1c(Cl)cccc1Cl: 73.2%
CCC(=O)O[C@]1(C(=O)CCl)[C@@H](C)C[C@H]2[C@@H]3CCC4=CC(=O)C=C[C@]4(C)[C@@]3(F)[C@@H](O)C[C@@]21C: 67.6%
CC(=O)OCC1=C(C(=O)O)N2C(=O)[C@@H](NC(=O)Cc3cccs3)[C@H]2SC1: 113%
CO[C@H]1C[C@@H]2CC[C@@H](C)[C@@](O)(O2)C(=O)C(=O)N2CCCC[C@H]2C(=O)O[C@H]([C@H](C)C[C@@H]2CC[C@@H](OC(=O)C(C)(CO)CO)[C@H](OC)C2)CC(=O)[C@H](C)/C=C(\C)[C@@H](O)[C@@H](OC)C(=O)[C@H](C)C[C@H](C)/C=C/C=C/C=C/1C: 36.8%
Cn1cc[nH]c1=S: 96.2%
O=C1OC(CN2CCOCC2)CN1/N=C/c1ccc([N+](=O)[O-])o1 (centres unmarked): 72.9%
O=C(O)c1cccc(-c2noc(-c3ccccc3F)n2)c1: 105%
Oc1ccc(/C=C/c2cc(O)cc(O)c2)cc1: 70.2%
Cc1c(N(C)CS(=O)(=O)O)c(=O)n(-c2ccccc2)n1C: 93.2% and 113%

Repeated from above (series 3):
EGFR (Homo sapiens, UniProt P00533, del747-752/P753S); cell-free assay, competition with immobilised ligand: 98%
MAPKAPK2 (Homo sapiens, UniProt P49137); cell-free assay, competition with immobilised ligand: 100%
FLT3 (Homo sapiens, UniProt P36888, D835V); cell-free assay, competition with immobilised ligand: 100%
Tyrosine-protein kinase ABL1, phosphorylated (ABL1, Homo sapiens, UniProt P00519, Y253F); cell-free assay, competition with immobilised ligand: 73%
EIF2AK2 (Homo sapiens, UniProt P19525); cell-free assay, competition with immobilised ligand: 100%
MKNK1 (Homo sapiens, UniProt Q9BUB5); cell-free assay, competition with immobilised ligand: 97%
STK39 (Homo sapiens, UniProt Q9UEW8); cell-free assay, competition with immobilised ligand: 100%
FLT1 (Homo sapiens, UniProt P17948); cell-free assay, competition with immobilised ligand: 100%
LTK (Homo sapiens, UniProt P29376); cell-free assay, competition with immobilised ligand: 100%
